Measurements pooled from the literature.
A part holds a random share of what one study measured.

Block 1
Target: RING finger protein unkempt homolog, zinc fingers 1-6, GST-SBP tag (UNK, Homo sapiens, UniProt Q9C0B0, residues 30-357)
Chain of UniProt Q9C0B0 (30-357, looked up): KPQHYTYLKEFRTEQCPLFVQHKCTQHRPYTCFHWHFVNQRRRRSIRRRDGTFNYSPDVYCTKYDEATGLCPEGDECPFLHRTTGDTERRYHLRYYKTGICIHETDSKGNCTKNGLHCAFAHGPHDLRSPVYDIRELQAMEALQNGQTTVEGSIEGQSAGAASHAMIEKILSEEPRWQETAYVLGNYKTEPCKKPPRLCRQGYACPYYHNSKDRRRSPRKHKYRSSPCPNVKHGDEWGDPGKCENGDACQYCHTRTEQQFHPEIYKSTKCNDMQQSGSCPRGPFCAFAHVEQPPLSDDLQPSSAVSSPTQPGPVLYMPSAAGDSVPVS
Method: RNA Bind-n-Seq
Form: RNA
Sample: in vitro
Concentration: not given
Notes: RNA with constant flanks, human and mouse sites, ends assumed
Relative to: input RNA pool
Direction: higher = stronger binding
All sequences stand within: GGGAGUUCUACAGUCCGACGAUC … CAACAGAGGAUUGAGCAUCA
Strand	bound/input enrichment
AGAAAACCAAAAUGAUACUUACUGAACUGUGUGUAAUUGUUCCUUUUAUUUUUUUGGUACCUAUUUGACUUACCAUGGAGUUAACAUCAUGAAUUUAUUGCACAUUGUUCAAAAGGAACC	0.203 ratio
UUUUUUAACAAAAAAAGGGACCAUUGCAACUUUUGUUAAUUUAAUUUUUUUUUUUUUUUUUUUUUUUUUUUUUUUUGGAGGGAGAAAACUGAUGUCUUCUAUGCAUCCGAUUCUUAACAA	7.32 ratio
GCUUUUAAUGGAGUUAUGUUUGGAGACAGGCCACUGAAAAUAAAUCACUCCAACAAUGCAAUAGUAAAACCCCCUGAGAUGACACCUCAGGCUGCAGCUAAGGAGUUAGAAGAAGUAAUG	1.71 ratio
GCACCAAAGUAUCAGAUAGGAGAGAGAAUCCGAGUCAUCCUGGACAUGGAGGAUAAGACUUUAGCUUUUGAGCGUGGGUAUGAGUUCCUGGGGGUUGCCUUUCGAGGACUUCCAAAAGCC	0.237 ratio
GCAGCAAGAUCAUGUGCAUAUCAUCCCAUUGUAAAGCAACUUCAAAAAUAUGGGAACAGUUAGUUAUUUUUACACAGUUCUUUUUGUUUGUGUGUGUGUGUGUGUGCUGUCGCUUGUCGA	1.66 ratio
GGUCCACAAGUUCAUCGUCAACACCCUGAAAGACGGCAGGAAAGUAGUUGUUUUGAUGGACUUGGAAGUUAUGAAAUCUGCUGAAGACGUUGGAUUAAAGAUUGGGAAUCCAGUGCCCUA	0.282 ratio
GCAGCGGGGGCCGCGGGCGGCGGCGGCGGCUCAUGCCCGGCCUGUCCCCGCGAGGGGCGGGCACCGUGACUCGGCUGGGCCCCCAGAGGCGGGCGAUGUGAAGAUGUCAGUGGGCUGUGC	1.32 ratio
GAUAUAAAGACUAUAUUUUCUGAAUUUAUCACAAUCGAAAUGUUAUUUCACGGCAAAGCUUUAGAGGUCUACACUGCUGCCUACCAGAAUAUACAAAACAUUGAUGAAGAUGAAGAUUUA	0.329 ratio
GAGGAAUUUGGAGUAGUUUCAAAUACAAGAUUGAUUGCUGCUGCUACUUCUGUAUUAAAAACUAGAUUUUCAUAUGCCUUUCCAAAGGAAUUUCCUUAUAGGAUGAAUCAUAUAUUAGAA	30.6 ratio
GAAUUUGGAGACUUUGAUAUUAAAACUGUACUUCAGGAGAUUAAACGAGGAAAAAGAAUGAAAUGUACACUUUGCAGUCAGCCUGGUGCUACUAUUGGAUGUGAAAUAAAAGCCUGUGUU	0.354 ratio
ACAAUUGGUUUUAACGUGGAAACUGUAGAAUAUAAAAAUCUAAAAUUCACUAUUUGGGAUGUAGGUGGAAAACACAAAUUAAGACCAUUGUGGAAACAUUAUUACCUCAAUACUCAAGCU	0.265 ratio

Block 2
Target: Histone acetyltransferase KAT6A, both winged helices, GST fusion (KAT6A, Homo sapiens, UniProt Q92794, residues 1-181)
Method: protein binding microarray
Form: double-stranded DNA, one strand shown
Sample: in vitro
Concentration: not given
Notes: 8-mer, flanks averaged, mean of 2 arrays, mostly near background
Relative to: not given
Direction: higher = stronger binding
Residues (chain): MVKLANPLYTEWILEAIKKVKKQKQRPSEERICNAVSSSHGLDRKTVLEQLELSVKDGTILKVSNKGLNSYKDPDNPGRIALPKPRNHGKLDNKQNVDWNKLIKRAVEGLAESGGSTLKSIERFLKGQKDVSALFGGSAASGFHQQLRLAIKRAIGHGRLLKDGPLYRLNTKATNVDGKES
Strand	E-score
AGATTTTC	-0.226
GCAGCATA	-0.0442
CATAGCGG	0.269
CCTCCTGA	-0.128
ACCCCGCA	0.207
GACCGCGA	0.266
AGGCGCTG	0.235
CCTTGCTC	-0.104
CGTGGGTA	0.0206
GGTCCGAC	0.109
GGCGGAAA	0.158
CGGTTTTC	0.155
ATATACTA	0.0293
CAGGCCCA	-0.176
GGTCGAAA	-0.0611
TGAATGAA	-0.127
ATAGGGGA	-0.276
CGATAACA	0.00842
TATGTCAA	0.00322
CGGACTGA	0.125

Block 3
Target: Prothrombin, mature alpha-thrombin (F2, Homo sapiens, UniProt P00734)
Method: aptamer microarray, sandwich
Form: DNA with 2'F-ANA
Sample: in vitro
Concentration: 200 nM
Notes: whole 15-mer aptamer, many near background
With: Cy3 exosite-II aptamer, 400 nM
Direction: higher = stronger binding
Strand: GGTTGGTGTGGTTGG
Modification	mean fluorescence intensity
2'F-ANA at 1 2 3 6 7 9 12 14 15	77.1 a.u.
2'F-ANA at 1 3 5 9 10 13 15	81.1 a.u.
2'F-ANA at 2 3 5 6 7 8 9 11 14 15	54.7 a.u.
2'F-ANA at 1 4 5 7 12 13	128 a.u.
2'F-ANA at 4 8 10 14	55.7 a.u.
2'F-ANA at 4 5 6 7 9 14	43.1 a.u.
2'F-ANA at 5 6 8 9 10 11 12 14	50 a.u.
2'F-ANA at 2 3 6 10 11 12 15	329 a.u.
2'F-ANA at 3 5 6 8 13 14	54.7 a.u.
2'F-ANA at 2 5 11 12 13	101 a.u.
2'F-ANA at 1 3 4 8 9 10 12 14	51.6 a.u.
2'F-ANA at 1 2 3 4 5 6 11 13 14	45.7 a.u.
2'F-ANA at 1 2 3 4 5 6 7 9 10 11 12 13	52 a.u.
2'F-ANA at 1 2 4 7 8 11 14 15	56.5 a.u.
2'F-ANA at 2 4 5 13 14 15	48 a.u.
2'F-ANA at 2 4 10 11 15	137 a.u.
2'F-ANA at 1 3 4 5 6 7 10 12	132 a.u.
2'F-ANA at 2 5 7 9 10 11 12 13 14 15	47 a.u.
2'F-ANA at 1 3 5 7 8 9 12 15	131 a.u.
2'F-ANA at 3 5 9 12 13 14 15	59.1 a.u.
2'F-ANA at 1 2 4 6 9 11 12 13 14	53.4 a.u.
2'F-ANA at 2 3 8 9 10	421 a.u.
2'F-ANA at 1 4 5 7 9 11	51.3 a.u.
2'F-ANA at 2 4 5 9 11 12 14	47 a.u.

Block 4
Target: Interferon regulatory factor 7, full length, phosphomimetic (IRF7, Homo sapiens, UniProt Q92985, residues 1-503, S101K/S471D/S472D/S475D/S476D/S477D/S483D/S484D/S487D)
Chain of UniProt Q92985 (whole entry, unmodified, looked up): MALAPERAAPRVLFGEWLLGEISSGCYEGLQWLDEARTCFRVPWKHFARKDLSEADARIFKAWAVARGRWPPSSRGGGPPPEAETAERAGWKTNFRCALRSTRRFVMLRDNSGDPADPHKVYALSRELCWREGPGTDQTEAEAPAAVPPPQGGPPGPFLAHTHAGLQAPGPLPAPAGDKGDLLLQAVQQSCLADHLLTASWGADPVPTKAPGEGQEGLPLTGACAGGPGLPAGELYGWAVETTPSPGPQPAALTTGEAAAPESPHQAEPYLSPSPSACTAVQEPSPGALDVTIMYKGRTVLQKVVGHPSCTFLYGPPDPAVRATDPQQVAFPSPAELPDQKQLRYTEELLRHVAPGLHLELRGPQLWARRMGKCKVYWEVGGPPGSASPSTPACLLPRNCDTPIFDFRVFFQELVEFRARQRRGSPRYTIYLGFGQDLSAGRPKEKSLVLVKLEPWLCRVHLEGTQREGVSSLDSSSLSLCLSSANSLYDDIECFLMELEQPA
Method: protein-binding microarray
Form: double-stranded DNA, one strand shown
Sample: in vitro
Concentration: 250 nM
Notes: 60-bp whole probe
With: salmon DNA 0.4 mg/ml
Relative to: random background probes
Direction: higher = stronger binding
All sequences stand within: GCCTAGCAC … GTCTTGATTCGCTTGACGCTGCTG
Strand	log fluorescence [z-score]
TTAGGTCTCGGTATCGTTTAGTGCTAG	3.44
GTGATCCGTCCGCCTCAGCCGTGCTAG	0.279
CCCATTCCAGGGTTTTATGGAGTGCTA	0.807
TTAGATTTCAGTTCCAATTAGTGCTAG	1.08
TTAGGACTGGGTATCGGTTAGTGCTAG	0.514
TTAGGTCTCCTTTTCCTTGAGTGCTAG	1.72
TCATATATGTGTATATAACTGTGCTAG	0.751
TAAGAACTGGGGACTGGATTAGTGCTA	-0.132
TTAGATATCAGTCCCGATTAGTGCTAG	0.192
TTAGGTCTCGGTATCGGATAGTGCTAG	2.74
TCATCTCTTTCCTTCTTACTGTGCTAG	1.39
TTAGATTACGGGTATCGATTAGTGCTA	0.952
TTAGGTATCGGTATCGGTTTGTGCTAG	5.7
CAAGTGGAGCCCAGGCCAGAGTGCTAG	-0.762
TTAGATTTCGGGACTTGATTAGTGCTA	0.51
AGAGCTTGTAGCCATCTTTGGTGCTAG	-0.827
GACGTACTGGGGTTTCGAGACGTGCTA	2.03

For quick reference, copied from above (block 2):
Strand	E-score
CCTCCTGA	-0.128
ACCCCGCA	0.207
GACCGCGA	0.266
AGGCGCTG	0.235
